# Assay results pooled from the literature.
# Every numbered part comes from another study and shows a few of its results, in no order. Substitutions count along the parent as printed.

# Series 1
# Target: CCND2, cyclin fold, Cln2 fusion (human)
# Method: yeast growth competition, sequencing
# Medium: yeast
# Notes: strong parent motif
# Reference: not given
# Direction: higher = stronger binding
# Parent: PKN2 docking peptide (human); VSAVRKLDFSDTM; partner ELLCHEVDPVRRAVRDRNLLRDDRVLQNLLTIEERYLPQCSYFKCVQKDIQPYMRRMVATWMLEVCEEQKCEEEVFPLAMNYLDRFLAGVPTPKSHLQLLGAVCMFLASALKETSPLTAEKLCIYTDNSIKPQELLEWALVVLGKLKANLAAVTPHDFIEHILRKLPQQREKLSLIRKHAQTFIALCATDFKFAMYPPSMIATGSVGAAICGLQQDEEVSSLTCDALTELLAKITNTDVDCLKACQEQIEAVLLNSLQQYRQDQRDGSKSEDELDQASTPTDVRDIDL
Change,normalised enrichment score
VSAVRKLDMSDTM [F9M],0.801
VSIVRKLDFSDTM [A3I],1.52
VSAVRKLDFSRTM [D11R],2.88
VSAVRKLDFFDTM [S10F],1.75
VSAGRKLDFSDTM [V4G],0.589
VSLVRKLDFSDTM [A3L],0.364
VSAVNKLDFSDTM [R5N],0.048
VSAVRKADFSDTM [L7A],0.284
VSAVRKLDFTDTM [S10T],3.38
VSAVRKLDFSDAM [T12A],3.66
VSAVRKLDKSDTM [F9K],0.502
VSAVRKLDTSDTM [F9T],0.0765

# Series 2
# Target: Ras GTPase-activating protein-binding protein 1, C-terminal RGG region (G3BP1, Homo sapiens, UniProt Q13283)
# UniProt Q13283, sequence (whole entry, looked up): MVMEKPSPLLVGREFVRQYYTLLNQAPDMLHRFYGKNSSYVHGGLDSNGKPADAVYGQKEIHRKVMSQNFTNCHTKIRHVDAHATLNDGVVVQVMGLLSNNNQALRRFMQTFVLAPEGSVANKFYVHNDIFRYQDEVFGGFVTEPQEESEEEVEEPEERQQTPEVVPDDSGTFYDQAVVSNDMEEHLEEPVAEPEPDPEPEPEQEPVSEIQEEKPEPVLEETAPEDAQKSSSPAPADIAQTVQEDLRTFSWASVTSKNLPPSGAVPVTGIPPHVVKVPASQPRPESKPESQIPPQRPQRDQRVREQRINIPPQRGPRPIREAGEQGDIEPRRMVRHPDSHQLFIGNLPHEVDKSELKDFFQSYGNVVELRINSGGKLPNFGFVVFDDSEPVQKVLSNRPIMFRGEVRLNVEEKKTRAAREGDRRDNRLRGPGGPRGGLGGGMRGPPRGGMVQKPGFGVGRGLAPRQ
# Method: RNA Bind-n-Seq
# Form: RNA
# Medium: in vitro
# Tested at: 1 µM
# Notes: whole 134-nt RNA, ends assumed
# With: 150 mM KCl
# Reference: input library
# Direction: higher = stronger binding
# All sequences stand within: GGGAGUUCUACAGUCCGACGAUC … UGGAAUUCUCGGGUGUCAAGG
Strand,log2 enrichment
UCCUGUGCUACACAUCGUAUGUACCGAAUCGGGGUGGGGAAAAAAAGGGGUUUUUGGGGAAAGUAUUAUGUUACGCCGUUCGGAUCUGCA,1.89
UGGGAGGUGGAUUUUGUUUAUUUUUUUAGCUUAUUUCCAGGGGUGGGAAUUUUUUUUUAAUAUGUGUCAUGAAUAAAGUUGUUUUUGAAA,3.52
AGUCCUGUGCUACACAUCGUAUGUACCGAAUCGGGGAAAGGGGAAAAAGGGGUGGGGAAAGUAUUAUGUUACGCCGUUCGGAUCUGCACU,2.7
UGGCCCUGGUGGCAUGCGGGGAGGUAGAGGUGGCCUCAUGGAUCGUGGUGGUCCCGGUGGAAUGUUCAGAGGUGGCCGUGGUGGAGACAG,2.51
AAGUCCUGUGCUACACAUCGUAUGUACCGAAUCGGAAAAAAAGGAGGUUUUUUUGGAAAGUAUUAUGUUACGCCGUUCGGAUCUGCACUU,-2.03
AGUCACUUUUUAAUUUUAUUUAUUAUUUCUCCUCUUAGACCGCAGGAUGGAAACAAGCCCACUGAGACUAGUCAACCUCAAUCUAGCACA,-0.525
GCAGGAAGUAAAAACAAAUGGAAAUGCUUCCGAUAGUGGCAGGGGUGGGGGUUGCUAAGGAAAGGGUGGGAUGGGAGUGGGUAAAGAGUU,1.96
CCUGUGCUACACAUCGUAUGUACCGAAUCGGGGCCCCCCGGGCCCCCCGGCCCCCCGGGGAAAGUAUUAUGUUACGCCGUUCGGAUCUGC,-2
GUCCUGUGCUACACAUCGUAUGUACCGAAUCAAACCCCCAAACCCCCCCAAACCCAAAAAAGUAUUAUGUUACGCCGUUCGGAUCUGCAC,-0.922

# Series 3
# Target: Interferon regulatory factor 7, full length, phosphomimetic (IRF7, Homo sapiens, UniProt Q92985, residues 1-503, S471D/S472D/S475D/S476D/S477D/S483D/S484D/S487D)
# UniProt Q92985, sequence (whole entry, unmodified, looked up): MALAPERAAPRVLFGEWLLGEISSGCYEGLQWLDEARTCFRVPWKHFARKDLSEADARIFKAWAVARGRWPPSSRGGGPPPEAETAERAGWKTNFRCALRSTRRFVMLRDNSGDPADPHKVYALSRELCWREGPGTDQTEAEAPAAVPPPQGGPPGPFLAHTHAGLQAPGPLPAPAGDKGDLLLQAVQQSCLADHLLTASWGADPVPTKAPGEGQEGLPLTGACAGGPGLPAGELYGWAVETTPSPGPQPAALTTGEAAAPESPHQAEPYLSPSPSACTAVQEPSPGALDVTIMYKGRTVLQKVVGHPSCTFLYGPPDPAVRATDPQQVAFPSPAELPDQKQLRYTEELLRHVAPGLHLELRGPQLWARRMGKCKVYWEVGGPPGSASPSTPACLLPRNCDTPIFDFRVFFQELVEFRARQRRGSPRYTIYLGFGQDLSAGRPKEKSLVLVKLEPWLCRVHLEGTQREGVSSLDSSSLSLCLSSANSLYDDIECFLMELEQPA
# Method: protein-binding microarray
# Form: double-stranded DNA, one strand shown
# Medium: in vitro
# Tested at: 2200 nM top
# Notes: 60-bp whole probe
# With: salmon DNA 0.4 mg/ml
# Reference: random background probes
# Direction: higher = stronger binding
# All sequences stand within: GCCTAGCAC … GTCTTGATTCGCTTGACGCTGCTG
Strand,fitted relative affinity [z-score]
TTAGTTCTCGGACTGGGTTAGTGCTAG,0.535
TTAGATATTAGTTTCGATTAGTGCTAG,6.46
ACCGATTTCCTTCACCCACTGTGCTAG,2.71
TCATATCACTATTCTAGGACTGTGCTA,1.05
GACAGACTGGGTTTCGGGACGTGCTAG,1.73
TCAACACTGGTTTTTACACTGTGCTAG,0.598
TTAGAACTGAGACCGGATTAGTGCTAG,-0.51
TTAGAACTGGGAACTGGATTAGTGCTA,-0.79
TTAGGTTTCTACACTGGGTTAGTGCTA,0.744
TTAGATCTCAGTCGCGATTAGTGCTAG,0.0922

# Series 4
# Target: Histone acetyltransferase KAT6A, both winged helices, GST fusion (KAT6A, Homo sapiens, UniProt Q92794, residues 1-181)
# Method: protein binding microarray
# Form: double-stranded DNA, one strand shown
# Medium: in vitro
# Tested at: not given
# Notes: 8-mer, flanks averaged, mean of 2 arrays, mostly near background
# Reference: not given
# Direction: higher = stronger binding
# Construct (chain): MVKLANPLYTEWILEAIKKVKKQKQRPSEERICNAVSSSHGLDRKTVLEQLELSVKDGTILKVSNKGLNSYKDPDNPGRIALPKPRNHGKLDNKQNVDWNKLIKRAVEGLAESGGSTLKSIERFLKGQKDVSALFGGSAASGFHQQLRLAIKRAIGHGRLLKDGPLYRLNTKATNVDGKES
Strand,E-score
GACATACA,0.115
ACGCCGCG,0.349
GTTAAGCA,0.0332
ATGCTGTA,-0.142
CAAAGTCA,-0.118
AGGAAGAC,-0.188
AATCAGAT,-0.134
ACCCACTC,-0.109
GCTGGCCC,-0.0818
ACTTTATC,-0.0951
CTCGATTA,-0.121
CGTACTCC,0.0456
ATTAGTTG,-0.065
ATGGGAGG,-0.105
GCCTCGAC,0.0635
GTCCGCTA,0.147
CATGTAAA,0.0618
AGCGCCAG,0.203
CCGTGCAC,0.161
GGAAAAGA,-0.0516
GCAAAGAC,-0.00841
ACTGTTGC,-0.0679
GACGCTGA,0.166
AACGACCC,-0.0272

# Single results of other studies
Substance,target,test,test system,conditions,scale,quantity,result
"PhoQ, residues 284 288 289 292 302 303 TYGVAM","PhoP, residues 12 14 15 18 19 LHHVQ (Escherichia coli, UniProt P23836)","Sort-seq, measured: YFP reporter",E. coli,"PhoQ-PhoP variant library, with: 10 µM Mg2+","reference: high Mg2+ state, higher = stronger signaling",fold induction,23.2

# Excerpt of the above (series 1):
Change,normalised enrichment score
VSAVRKLDMSDTM [F9M],0.801
VSIVRKLDFSDTM [A3I],1.52
VSAVRKLDFSRTM [D11R],2.88
VSAVRKLDFFDTM [S10F],1.75
VSAGRKLDFSDTM [V4G],0.589
VSLVRKLDFSDTM [A3L],0.364
VSAVNKLDFSDTM [R5N],0.048
VSAVRKADFSDTM [L7A],0.284
